Measurements pooled from the literature.
Every numbered part comes from another study and shows a few of its results, in no order. Positions count from the first letter of the parent shown.

Series 1 — target: CCNA2, cyclin fold, Cln2 fusion (human); method: yeast growth competition, sequencing; medium: yeast; notes: strong parent motif; baseline: not given; direction: higher = stronger binding
Starting sequence: ORC1 docking peptide (human); PRARKRLELGNLG
For `PRARKRLELGNLK [G13K]`, “normalised enrichment score” read 5.07.
`PRARKRLELGNLN [G13N]` — result for “normalised enrichment score”: 5.
For `FRARKRLELGNLG [P1F]`, “normalised enrichment score” read 3.42.
`PRARKRLELGNWG [L12W]`: “normalised enrichment score” 5.29.
`PRARKRLELGYLG [N11Y]` — result for “normalised enrichment score”: 5.78.
Under “normalised enrichment score”, `KRARKRLELGNLG [P1K]` is recorded as 4.9.
`PRARKRLELGNLA [G13A]`: “normalised enrichment score” 5.05.
`PRARKRLELENLG [G10E]`: “normalised enrichment score” 5.51.
`PRARKRDELGNLG [L7D]`: “normalised enrichment score” 0.495.

Series 2 — method: protein-binding microarray; molecule type: double-stranded DNA, one strand shown; medium: in vitro; concentration: 0.8 µM; notes: whole 60-bp probe, no competitor; direction: higher = stronger binding
Target: Centromere-binding protein 1, full length, N-terminal tag (CBF1, Saccharomyces cerevisiae, UniProt P17106, residues 1-351)
UniProt P17106, sequence (whole entry, looked up): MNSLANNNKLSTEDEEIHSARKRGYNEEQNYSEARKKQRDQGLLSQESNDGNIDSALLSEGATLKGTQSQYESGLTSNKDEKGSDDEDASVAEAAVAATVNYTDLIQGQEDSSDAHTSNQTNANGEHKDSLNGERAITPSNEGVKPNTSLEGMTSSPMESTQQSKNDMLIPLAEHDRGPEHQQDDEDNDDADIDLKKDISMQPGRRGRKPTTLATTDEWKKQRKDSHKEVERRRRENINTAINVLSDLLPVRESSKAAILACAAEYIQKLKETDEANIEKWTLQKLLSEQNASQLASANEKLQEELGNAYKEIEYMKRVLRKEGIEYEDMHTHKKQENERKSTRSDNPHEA
`TGTACGAAGCTATCACACGTGACTATAGTAGTTAGGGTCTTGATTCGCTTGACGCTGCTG` has a fluorescence intensity of 11900 a.u.
`GAATATTATCATTATCACGAGGAACCTCAATGTTAGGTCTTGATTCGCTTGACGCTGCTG` gave a fluorescence intensity of 1170 a.u.
With `GAAATTTTTTTAAGCAACATCAGCTGCACTAGTTAGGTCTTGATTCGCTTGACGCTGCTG` the fluorescence intensity was 584 a.u.
With `CTACCCACATTTTTTCACCTGACTCCGGTCCTGTTCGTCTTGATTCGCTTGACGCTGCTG` the fluorescence intensity was 831 a.u.
`CTAAAGTTTGATTGTCACGGTCATCTGAGATATTTCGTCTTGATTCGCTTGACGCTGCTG` has a fluorescence intensity of 776 a.u.
For `GAACTATTGCGAAGTTTGGTGTCACATGGTTTGTAGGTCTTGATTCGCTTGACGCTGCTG`, the fluorescence intensity was 5660 a.u.
`CTACTGTGATTGGCGCACGGGTGTGGAGGTGTCTTCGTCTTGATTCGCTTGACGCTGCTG` gave a fluorescence intensity of 581 a.u.
`GAACGCATAGTGTGTCACCAAAGGTTGAGAGAATAGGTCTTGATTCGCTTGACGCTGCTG` gave a fluorescence intensity of 570 a.u.
For `CCTAACTACTATATCCACACGTTATAGCTTCGTACAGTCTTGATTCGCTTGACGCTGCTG`, the fluorescence intensity was 569 a.u.

Series 3 — method: RNA Bind-n-Seq; molecule type: RNA; medium: in vitro; concentration: 365 nM; baseline: no-protein control; direction: higher = stronger binding
Target: RNA binding protein fox-1 homolog 2, RRM domain, GST-SBP tag (RBFOX2, Homo sapiens, UniProt O43251-10, residues 100-194)
Notes: natural RNA segment, single round, ends assumed
Construct (chain): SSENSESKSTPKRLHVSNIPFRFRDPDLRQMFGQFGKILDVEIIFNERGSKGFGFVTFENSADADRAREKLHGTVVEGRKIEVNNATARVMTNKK
`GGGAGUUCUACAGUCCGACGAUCGGUCUUGAGGGUUGACCAUGUUGCGUCAUCAUCAACAUUUUGGGGGUUGUGUUGGAUGGGAUGAUCUGUUGCAGAGGGAGAGGCAGGGAACCCUGCUCCUUCGGGCCCCAUGGAAUUCUCGGGUGCCAA` — result for “RBNS enrichment (R)”: 1.25.
Under “RBNS enrichment (R)”, `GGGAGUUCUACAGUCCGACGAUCGUUGCAUUUUAAUCAGUAAUCUACCUGGUGGAUUUGUUUUUAACCAAAAAGAUGAAUUAUCAAUGAUUUGUAAUUAUAUCAGUUGAUUUUUUUUGAAAAGAUGAACCAAAUGGAAUUCUCGGGUGCCAA` is recorded as 1.17.
Under “RBNS enrichment (R)”, `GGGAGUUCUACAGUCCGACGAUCCGGGGAGGAACUUCUGGGGCUCCUGCUGGGGCCACUUCCUGGGCUGCUCCCUCGGGCCUGUAGGGGGAGGUGGCCUUCUGACCCCUUUACACGUCCCCUGGGUGGACCUCUGGAAUUCUCGGGUGCCAA` is recorded as 0.988.
Under “RBNS enrichment (R)”, `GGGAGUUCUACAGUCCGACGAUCAAAUUACUUUCUCAUUCUUUUAGUGUAUUCAACAUUGUCUGCCUCUUCCUGCAGUUGAUGUAAUUGCUUUGUUUGCAAUAGCACAAGCUGCAUUAUUCCAGUCAGGACUGUGGAAUUCUCGGGUGCCAA` is recorded as 0.492.
For `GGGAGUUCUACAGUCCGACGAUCACAUUUGAGGUGGCCACAUGAUUGGGUGGAAUUCAUCCCUCCUGUCUUCACCAUUCCUCCCAGCUCCACAUCUUAAGGAUGCUUACGGGAGACGAAGCUGUGUCAUCAAGUGGAAUUCUCGGGUGCCAA`, “RBNS enrichment (R)” read 0.216.
`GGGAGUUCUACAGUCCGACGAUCGUGGCUCUGAGGCCUAGGCAACGAGCGACAGGGCUGCCAGUUGCCCCUGGGUUCCUUUGUGCUGCUGUGUGCCUCCUCUCCUGCCGCCCUUUGUCCUCCGCUAAGAGACCUGGAAUUCUCGGGUGCCAA` — result for “RBNS enrichment (R)”: 0.325.
Under “RBNS enrichment (R)”, `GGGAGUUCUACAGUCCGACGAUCAUAAGGAGGAAAACCAAAACCCCAAGCACCCAUUAAACAAGUCCUGGCAGGACUCACAGGAACAAACGAGGUCCCUGUUAGGGUUCUACUCGGGGGAGGGAGGGGGCUCCUGGAAUUCUCGGGUGCCAA` is recorded as 0.299.
For `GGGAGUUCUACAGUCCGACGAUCCAAUCUCAGCCCUCCACGCCAAGGAGCCUUGCCCACCAGCCAAUCAAUGUUCGUCUCUGCCCUGAUGCUGCCUCAGGAUCCCCCAUUCCCCACCCUGGGAGAUGAGGGGGUGGAAUUCUCGGGUGCCAA`, “RBNS enrichment (R)” read 0.494.
`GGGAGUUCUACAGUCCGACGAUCGAAUAAAGUUAUGUUCUGAUAGUUUGUACAGAAAAAAUAAAAUGGAUGCCCAUGUUUUAUUGCUAUUACUAAAUGUCAAGAUUGUAUGCUAUUAUGUCUUGUAAAUUUCUUGGAAUUCUCGGGUGCCAA`: “RBNS enrichment (R)” 7.49.
`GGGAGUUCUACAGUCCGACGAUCUUGCUCUGAAUUUGUAAAUAAGUCUUCCCCAUUCCUCAUACUCGAGCCUCUCCUCUCUGGUUGCCUCCUGCCACCAGCAUCCAUGGCUCAUUUGACACCUUUUUAAAUAUUGGAAUUCUCGGGUGCCAA`: “RBNS enrichment (R)” 0.718.
`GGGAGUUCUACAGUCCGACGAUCGAACUCACUAUGUAGAUCAGGCUGGACUGAACUCACAAAGAUCCACCUGCCUCUGCCUCACAAAUGCUGGGAUAAAAAGCAUGAACCACCAGGCCCAGCAAAGAGGGCUAUGGAAUUCUCGGGUGCCAA` — result for “RBNS enrichment (R)”: 3.68.
`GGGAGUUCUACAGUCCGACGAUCCCUUUUCUUCCUUUGUCCCGUUGUCGAGGUUUUUUCAAAUAGCGUGUUGUUCAGUAUGCAAAUCAAUUAUUUUAAGAAUCGCUUUUGUAAAUAUCUUUGUGAAUAUUUUAUGGAAUUCUCGGGUGCCAA`: “RBNS enrichment (R)” 1.18.

Single results of other studies
`PhoQ, residues 284 288 289 292 302 303 SLKLQV` gave a fold induction of 5.05 (PhoP, residues 12 14 15 18 19 TPLRH (Escherichia coli, UniProt P23836); Sort-seq, item: YFP reporter; E. coli; PhoQ-PhoP variant library, with: 10 µM Mg2+; baseline: high Mg2+ state, higher = stronger signaling).

A few entries again (series 1):
Under “normalised enrichment score”, `KRARKRLELGNLG [P1K]` is recorded as 4.9.
`PRARKRLELGNWG [L12W]`: “normalised enrichment score” 5.29.
